Measurements collected from several papers.
Parts stem from different laboratories: compare values within a part only. ± marks the error that the study gave.

Series 1 — organism: SARS-CoV-2 Wuhan spike VSV pseudovirus; effect on: pseudovirus entry; tested at: concentration not given; measurement: inhibition
COc1ccc(C(CC(=O)N2CCN(c3cnccn3)CC2)c2ccccc2)cc1 (stereo not shown): 38%
O=S(=O)(Nc1cccc2nc[nH]c12)c1ccc(Oc2ccccc2)cc1: 39%
Cc1ccc2[nH]cc(CN(C)CC3CCCCO3)c2c1 (stereo not shown): 50%
COC(=O)c1sc(S(C)(=O)=O)c(C#N)c1-c1cc(C(C)(C)C)oc1C: 38%
CCc1cn[nH]c1C1CCCN(C(=O)c2cc3cc(Cl)cc(OC)c3o2)C1 (stereo not shown): 43%
O=C(O)c1cc2ccc(O)cc2oc1=O: 45%
O=S(=O)(Cc1ccccc1F)c1oc(-c2ccc(F)cc2)nc1S(=O)(=O)c1ccccc1: 48%
Cc1n[nH]c(C)c1C(NC(=O)CSC12CC3CC(CC(C3)C1)C2)C(=O)O (stereo not shown): 38%
CCN(Cc1ccccc1)S(=O)(=O)c1ccc(C(=O)Nc2nc3c(s2)CN(C)CC3)cc1: 47%
Cc1cnc(-c2ccc(C(C)N3CCOCC3)cc2)c(Cl)c1 (stereo not shown): 40%
COc1ccc(Cl)cc1NC(=O)Cn1c(C(=O)c2cccc(F)c2)nc2ccccc21: 39%
COc1cccc(NC(=O)CCC2CCN(C(=O)c3cnn(C(C)C)c3)CC2)c1: 46%
CCOC(=O)C1(Cc2ccccc2C(F)(F)F)CCN(C(=O)Cc2nonc2C)CC1: 44%
O=C(CCC(=O)N1CCN(c2nc3cccnc3s2)CC1)N1CCN(C(=O)c2ccco2)CC1: 38%

Single results of other studies
rep nsp12 RdRp: Replicase polyprotein 1ab, nsp12 RdRp (rep, Severe acute respiratory syndrome coronavirus 2, UniProt P0DTD1)
rep papain-like protease: Replicase polyprotein 1ab, papain-like protease (rep, Severe acute respiratory syndrome coronavirus 2, UniProt P0DTD1)
rep nsp14: Replicase polyprotein 1ab, nsp14 (rep, Severe acute respiratory syndrome coronavirus 2, UniProt P0DTD1)
CCC(CC)[C@H](NC(C)=O)[C@@H]1[C@H](O)[C@@H](C(=O)O)C[C@H]1N=C(N)N  IC50 (neuraminidase (Influenza B virus, UniProt A0A1S5RAG6, D197N)): 2.7 ± 0.2 nM
NC(=O)c1ccc(-c2nc(-c3ccc4c(c3)OCCO4)c(-c3ccccn3)[nH]2)cc1  BLI response (rep nsp12 RdRp; binding, biolayer interferometry; concentration not given): -0.02 nm
N#C[C@@]1(n2ccc(N)nc2=O)O[C@H](CO)[C@@H](O)[C@H]1O  EC50 (SARS-CoV-2; viral replication; Calu-3, Alpha): 900 ± 1200 nM
CC(C)Nc1nc2cc(Cl)c(Cl)cc2n1[C@H]1O[C@@H](CO)[C@H](O)[C@@H]1O  IC100 (SARS-CoV-2; cytopathic effect; Vero C1008, Omicron BA.1; 48 h): 7.99 ± 0.28 µM
CC(C)[C@H](N)C(=O)N1CCC[C@H]1B(O)O.CS(=O)(=O)O  activity (rep papain-like protease; concentration not given, C111S mutant; baseline: positive control): 14%
Cc1ccc(NS(=O)(=O)c2cccc(C(=O)NC3CCN(c4ncnc5[nH]cnc45)CC3)c2)cc1  inhibition (rep nsp14; 200 µM): 85.2%
COC(=O)[C@@H](Cc1ccc(O)c(O)c1)OC(=O)/C=C/c1ccc(O)c(O)c1  activity (rep papain-like protease; concentration not given, C111S mutant; baseline: positive control): 22.7%
SLHAVTAAQSTIEEQAKTFLDKFN  relative binding (SARS-CoV-2 spike RBD; peptide spot array; peptide; concentration not given; baseline: wild-type ACE2 peptide): 3.07
CNCC12C3CCC4C3C3C(CCC31)C42.Cl  inhibition (Matrix protein 2 (Influenza A virus, UniProt P0DOF5, S31N); concentration not given, pH 5.5, cell-based): 0%
O=C(NC1CCN(c2ncnc3[nH]cnc23)CC1)c1cccc(S(=O)(=O)N2CCC2)c1  inhibition (rep nsp14; NSP14 enzyme activity, inhibitor; 0.01221 µM): 4.21%
CCC(CC)COC(=O)[C@H](C)N[P@](=O)(OC[C@H]1O[C@@](C#N)(c2ccc3c(N)ncnn23)[C@H](O)[C@@H]1O)Oc1ccccc1  EC50 (SARS-CoV-2; Calu-3, Delta): 300 ± 40 nM
Cc1csc(-c2nnc(Nc3ccc(Oc4ncccc4-c4ccnc(N)n4)cc3)c3ccccc23)c1  BLI response (rep nsp12 RdRp; binding, biolayer interferometry; 50 µM): 0.02 nm
SLVAVTAAQSTIEEQAKTFLDKKN  relative binding (SARS-CoV-2 spike RBD; peptide spot array; peptide; concentration not given; baseline: wild-type ACE2 peptide): 3.28
CC(C)C(=O)OC[C@H]1O[C@@H](n2ccc(NO)nc2=O)[C@H](O)[C@@H]1O  EC50 (SARS-CoV-2; infectious virus yield; Vero C1008, Omicron BA.1; 48 h): 2600 ± 110 nM

Repeated from above (series 1):
COC(=O)c1sc(S(C)(=O)=O)c(C#N)c1-c1cc(C(C)(C)C)oc1C: 38%
CCc1cn[nH]c1C1CCCN(C(=O)c2cc3cc(Cl)cc(OC)c3o2)C1 (stereo not shown): 43%
O=C(O)c1cc2ccc(O)cc2oc1=O: 45%
O=S(=O)(Cc1ccccc1F)c1oc(-c2ccc(F)cc2)nc1S(=O)(=O)c1ccccc1: 48%
